Experimental data from different studies.
Compare with care: the assays were run in different laboratories. Numbers after ± are the reported error.
Cell line: HeLa

With CC12CCC(OC(=O)NCCCn3ccnc3)CC1CCC1C2CCC2(C)C(c3ccc(=O)oc3)CCC12O (stereo not drawn) the IC50 was 47.3 nM (cell growth or viability, MTT).
NC[C@@H]1[C@H]2CN3C(=O)c4cccn4[C@@H]4NC(N)=N[C@@]43[C@@H]2[C@]2(N=C(N)N[C@H]2O)[C@H]1Cl.O=C(O)C(F)(F)F (racemic) — result for IκBα degradation: “inhibited” (confocal microscopy; concentration not given, 30 min pretreatment, with: TNF-α 20 ng/mL 30 min; reference: TNF-α with vehicle).
With CC1(C)Cc2cc3[nH]c(cc4nc(cc5[nH]c(cc1n2)cc5C#CC[N+](C)(C)C)CC4(C)C)cc3C#CC[N+](C)(C)C.[Cl-].[Cl-] the LD50 was 2000 nM (phototoxicity, MTT; 24 h, 10 J/cm^2 irradiation).
The IC50 of CNCCCNC(=O)O[C@H]1CC[C@@]2(C)[C@H](CC[C@@H]3[C@@H]2CC[C@]2(C)[C@@H](c4ccc(=O)oc4)CC[C@]32O)C1 is reported as 115 nM (cell growth or viability, MTT).
N.N.[Cl][Pt][Cl] has an IC50 of 1370 nM (cell growth or viability, MTT; 72 h).
CC1(C)Cc2cc3[nH]c(cc4nc(cc5[nH]c(cc1n2)cc5C(=O)N1CC[N+](C)(C)CC1)CC4(C)C)cc3C(=O)N1CC[N+](C)(C)CC1.[Cl-].[Cl-] has an LD50 of 800 nM (phototoxicity, MTT; 24 h, 10 J/cm^2 irradiation).
With CCOP(=O)(OCC)[C@H]1C[C@@H](Cn2c(=O)n(C(=O)c3ccccc3)c(=O)c3ccccc32)ON1Cc1ccccc1 (relative stereo) the IC50 was > 250000 nM (cell growth or viability; 96 h).
O=[N+]([O-])[O-].O=[N+]([O-])[O-].[Co+2] has an IC50 of > 500000 nM (cell growth or viability, MTT).
CC[C@H](C)[C@@H]([C@@H](CC(=O)N1CCC[C@H]1[C@H](OC)[C@@H](C)C(=O)N[C@H](C)[C@@H](O)c1ccccc1)OC)N(C)C(=O)[C@@H](NC(=O)[C@@H](NC)C(C)C)C(C)C gave an IC50 of ~4 nM (cell growth or viability; 72 h).
The IC50 of CSCC[C@H](NC(=O)[C@H](CCC(N)=O)NC(=O)[C@H](CCC(N)=O)NC(=O)[C@H](CO)NC(=O)[C@H](CCCNC(=N)N)NC(=O)[C@H](CCC(=O)O)NC(=O)CNC(=O)[C@H](CC(C)C)NC(=O)CNC(=O)[C@H](CC(N)=O)NC(=O)[C@@H](NC(=O)[C@@H](N)CCC(N)=O)C(C)C)C(=O)O is reported as 230 ± 20.1 µg/mL (CCK-8; 36 h).
For C#CCN(Cc1cnc2nc(N)nc(N)c2n1)c1ccc(C(=O)N[C@@H](CCC(=O)O)C(=O)O)cc1, the EC50 was > 99000 nM (cell growth or viability; 24 h).
N.N.[Cl][Pt][Cl] has an IC50 of 4310 nM (cell growth or viability, resazurin).
The apoptotic cells of CN[C@@H]1C[C@H]2O[C@@](C)([C@@H]1OC)n1c3ccccc3c3c4c(c5c6ccccc6n2c5c31)C(=O)NC4 is reported as 38.5 ± 6.74% (annexin V/PI flow cytometry; 300 nM, 4 h).
For N#CC(=C(/N)Sc1ccccc1N)/C(C#N)=C(/N)Sc1ccccc1N, the IC50 was 690 nM (H1R promoter reporter gene; with: PMA 100 nM for 10 h).
For NC([S-])=NN=CC=NN=C(N)[S-].O=[N+]([O-])[O-].[Co+3].c1c[nH]cn1.c1c[nH]cn1, the IC50 was 7400 nM (cell growth or viability, MTT).

Excerpt of the above:
For N#CC(=C(/N)Sc1ccccc1N)/C(C#N)=C(/N)Sc1ccccc1N, the IC50 was 690 nM (H1R promoter reporter gene; with: PMA 100 nM for 10 h).
For NC([S-])=NN=CC=NN=C(N)[S-].O=[N+]([O-])[O-].[Co+3].c1c[nH]cn1.c1c[nH]cn1, the IC50 was 7400 nM (cell growth or viability, MTT).
